Results collected from several papers.
Each numbered part is a random draw from the data of one study; scales do not carry over between parts.

Block 1
Target: RNA binding protein fox-1 homolog 2, RRM domain, GST-SBP tag (RBFOX2, Homo sapiens, UniProt O43251-10, residues 100-194)
Method: RNA Bind-n-Seq
Form: RNA
Sample: in vitro
Concentration: 365 nM
Notes: natural RNA segment, single round, ends assumed
Relative to: no-protein control
Direction: higher = stronger binding
Measurement: RBNS enrichment (R)
Target sequence (chain): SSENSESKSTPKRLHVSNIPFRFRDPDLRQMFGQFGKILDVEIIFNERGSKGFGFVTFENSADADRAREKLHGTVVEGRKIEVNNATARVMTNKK
Oligonucleotide = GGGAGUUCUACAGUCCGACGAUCCUUAGAAAGAGUCAUAAGAAAAAAAAAAAGACAUUUUAUUGUAAAUAACUUACAAGUGAAAUUAAGAAAACAUAAGAUUUAGUCUUACAGUUUCUAAAUAUAUGAUUUGUUGGAAUUCUCGGGUGCCAA; value = 0.599
Oligonucleotide = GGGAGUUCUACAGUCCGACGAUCACCUAACUCAUCGUGUUUGCAUUCUUGUUAAGUUUUUUUGGCUUUGGAAUGUGACACAGCCUUUUUGAUCAUUUCUUUGAUGUGAAAAGCAUCUUUUGGUUAUCAGUUAAUGGAAUUCUCGGGUGCCAA; value = 0.45
Oligonucleotide = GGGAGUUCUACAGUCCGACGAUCUCUGGGCUUUCCUUUGCCCUCAGUUUUUCACAGGUAGGUAGUAGCCAUGGAGGGCUGAAGCCCAGGCUCUCCUUACUCUCUGGAGUGUGAAGGUAGGGGUGAGCUCGUCUUGGAAUUCUCGGGUGCCAA; value = 0.311
Oligonucleotide = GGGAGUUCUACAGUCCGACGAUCGAAGAGACUGCAAAGACACAUGAAGAUUUCUGAUCCUAAAAUGCUGUUUUGUUUACUUCCUGUCAAGAUAUCAACCCCUGUCCAAUUCAAACUAUAGUACUGUGUAAUUAUGGAAUUCUCGGGUGCCAA; value = 0.427
Oligonucleotide = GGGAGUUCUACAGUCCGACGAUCUUUCUAUUCUUGGAGAUAAAAAUUAAAUGGAUCACUGAUAUUUUAGUCAUUCUGCUUCUCAUCUAAAUAUUUCCAUAUUCUGUAUUAGGAGAAAAUUACCCUCCCAGCACUGGAAUUCUCGGGUGCCAA; value = 0.401

Block 2
Target: Phosphate system positive regulatory protein PHO4, full length, GST-tagged (PHO4, Saccharomyces cerevisiae, UniProt P07270, residues 1-312)
UniProt P07270, sequence (whole entry, looked up): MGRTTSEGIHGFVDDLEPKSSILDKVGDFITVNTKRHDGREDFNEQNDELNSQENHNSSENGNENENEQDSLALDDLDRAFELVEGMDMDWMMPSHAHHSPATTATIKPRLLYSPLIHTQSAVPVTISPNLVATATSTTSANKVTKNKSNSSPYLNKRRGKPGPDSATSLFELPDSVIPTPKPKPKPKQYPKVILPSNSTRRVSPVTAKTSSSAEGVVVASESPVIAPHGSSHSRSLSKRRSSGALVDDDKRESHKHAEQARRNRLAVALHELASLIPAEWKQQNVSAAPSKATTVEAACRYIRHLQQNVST
Method: competition protein-binding microarray
Form: double-stranded DNA, one strand shown
Sample: in vitro
Concentration: 2 µM
Notes: whole 60-bp probe, lowest competitor level
With: Cbf1 competitor, 0.05 µM
Direction: higher = stronger binding
Measurement: fluorescence intensity
Oligonucleotide = CTTCTGTAAATTTGGATGGTGGGTGGACGCGCCCCGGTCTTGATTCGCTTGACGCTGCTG; value = 4420 a.u.
Oligonucleotide = AAAGCGGTAATTTGAATTGTGGGTGCAGATATCTATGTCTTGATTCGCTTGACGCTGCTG; value = 3890 a.u.
Oligonucleotide = CTTTCCCGATCTTGTCACATAACTTTAGCACATTTGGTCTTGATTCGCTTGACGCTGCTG; value = 4500 a.u.
Oligonucleotide = CTAACGAAGGTTTGTAGAGTGGGTGACAAGCCAAGTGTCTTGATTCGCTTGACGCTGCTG; value = 3730 a.u.
Oligonucleotide = TGCGCAACAACTTGCGATGTGGGTGTATGTCTAGAAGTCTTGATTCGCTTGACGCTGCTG; value = 5280 a.u.
Oligonucleotide = CCCAATGGTGGCTCACACTTTTAAACTTTCTAAATTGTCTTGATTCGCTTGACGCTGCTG; value = 4030 a.u.
Oligonucleotide = TCGCGCACTACTTTTTTCGTGGGTAACTTAGGTGAAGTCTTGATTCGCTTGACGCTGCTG; value = 4690 a.u.

Block 3
Target: Fragile X messenger ribonucleoprotein 1, C-terminal low-complexity region (Fmr1, Mus musculus, UniProt P35922)
Method: RNA Bind-n-Seq
Form: RNA
Sample: in vitro
Concentration: 200 nM
Notes: whole 134-nt RNA, ends assumed
With: 150 mM LiCl
Relative to: input library
Direction: higher = stronger binding
Measurement: log2 enrichment
Each molecule: 7-deaza-guanosine replaces G
Oligonucleotide = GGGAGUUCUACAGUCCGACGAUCCUCCAGAAAGCAGUGGGGCCUGAGAUCACCAAGACAGACCUGGUCCCUGCCUUCCAGAACCUGAUGAAAGACUGUGAGGCCGAGGUGAGGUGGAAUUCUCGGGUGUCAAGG; value = -1.58
Oligonucleotide = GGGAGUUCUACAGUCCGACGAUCUGGGAGGUGGAUUUUGUUUAUUUUUUUAGCUCAUUUCCAGGGGUGGGAAUUUUUUUUUAAUAUGUGUCAUGAAUAAAGAUGUUUUUGAAAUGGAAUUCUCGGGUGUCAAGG; value = -0.359
Oligonucleotide = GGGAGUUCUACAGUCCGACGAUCGUCCUGUGCUACACAUCGUAUGUACCGAAUCGGGGUUUUUGGGGUUUUUGGGGUGGGGAAAGUAUUAUGUUACGCCGUUCGGAUCUGCACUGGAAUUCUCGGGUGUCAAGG; value = -0.879
Oligonucleotide = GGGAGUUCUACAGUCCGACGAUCUGGGAGGUGGAUUUUGUUUAUUUUUUAAGCUCAUUUCCAGGGGUGGGAAUUUUUUUUUAAUAUGUGUCAUGAAUAAAGUUGUUUUUGAAAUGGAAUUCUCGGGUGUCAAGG; value = -1.01
Oligonucleotide = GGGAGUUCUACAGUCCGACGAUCUGUGCUACACAUCGUAUGUACCGAAUCGGGGUUUUUUUGGGGAAAAAGGGGUUUUUUUGGGGAAAGUAUUAUGUUACGCCGUUCGGAUCUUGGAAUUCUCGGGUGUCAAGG; value = -1.79
Oligonucleotide = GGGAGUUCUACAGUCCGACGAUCGCAGGAAGUAAAAACAAAUGGAAAUGCUUCGGAUAGUGGCAGGGAUGGGGGUUGCUAAGGAAAGGGUGGGAUGGGAGUGGGUAAAGAGUUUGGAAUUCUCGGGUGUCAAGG; value = 1.63
Oligonucleotide = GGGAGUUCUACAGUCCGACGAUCUGGGAGGUGGAUUUUGUUUAUUUUUUUAGCUCAUUUCCAGGGGUGCGAAUUUUUUUUUAAUAUGUGUCAUGAAUAAAGUUGUUUUUGAAAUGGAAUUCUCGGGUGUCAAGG; value = -0.459

Single results of other studies
Substance = PhoQ, residues 284 288 289 292 302 303 NLCILV; target = PhoP, residues 12 14 15 18 19 LHTVM (Escherichia coli, UniProt P23836); test = Sort-seq, refers to: YFP reporter; test system = E. coli; conditions = PhoQ-PhoP variant library, with: 10 µM Mg2+; how to read = relative to: high Mg2+ state, higher = stronger signaling; measurement = fold induction; value = 15.6

For quick reference, copied from above (block 2):
Oligonucleotide = CTTTCCCGATCTTGTCACATAACTTTAGCACATTTGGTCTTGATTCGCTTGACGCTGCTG; value = 4500 a.u.
